Assay results of several laboratories.
Protocols differ between the studies behind these lines. Values joined by “and” are separate records of one study, mostly repeats; a detail may differ. Numbers after ± are the reported error.

FGASVQEFF — IFN-γ ELISpot response (CD8 T cell response; peptide, naive splenocytes as APCs, mouse; 2 µg/mL, 48 h): negative
colistin — MIC (Escherichia coli; broth microdilution; clinical isolate RKI-No_462/16): 8 µg/mL
RFLRFQQEL — IFN-γ ELISpot response (CD8 T cell response; peptide, naive splenocytes as APCs, mouse; 2 µg/mL, 48 h): negative
semaglutide — fasting blood glucose (DIO male Wistar rats; dose not given, 7 weeks): 95 ± 3 mg/dL
LTPLVPEEL — IFN-γ ELISpot response (CD8 T cell response; peptide, naive splenocytes as APCs, mouse; 2 µg/mL, 48 h): negative
human HSC70 — co-IP enrichment (co-immunoprecipitation; human RBC cytosol; unit not given, added: Band 3 peptide 1-56 bait; reference: negative control): 0
insulin degludec — maximum glucose infusion rate (euglycaemic hyperinsulinaemic clamp; healthy Chinese male humans; subcutaneous, 0.4 IU/kg, 24 h, 3 FC level, single dose, reference formulation): 2.15 ± 1 mg/kg/min
PMESGICTIV — binding intensity (human SCRIB PDZ3-4 tandem (MBP fusion); automated holdup; peptide, purified PDZ protein; concentration not given, unit not given; reference: biotin control resin, higher = stronger binding): -0.0577
CCT4 — co-IP enrichment (co-immunoprecipitation; human RBC cytosol; unit not given, added: Band 3 peptide 1-56 bait; reference: negative control): 0
PKRSFIESNV — binding intensity (human SCRIB PDZ3-4 tandem (MBP fusion); automated holdup; peptide, crude extract; concentration not given, corrected by standard peak, unit not given; reference: biotin control resin, higher = stronger binding): 0.95
difelikefalin — PGIC minimally improved (Japanese haemodialysis patients with pruritus; intravenous, 1.0 µg/kg, 8 weeks): 18.3%
human GAPDH — co-IP enrichment (co-immunoprecipitation; human RBC membrane; DMTMM crosslinker, unit not given, added: Band 3 peptide 1-56 bait; reference: negative control): 123
glucagon — plasma free fatty acids (mouse; dose not given, 6 h): 1.07 mmol/L and 1.26 mmol/L and 1.11 mmol/L and 0.995 mmol/L and 0.911 mmol/L
FPMISKLRY — IFN-γ ELISpot response (CD8 T cell response; peptide, naive splenocytes as APCs, mouse; 2 µg/mL, 48 h): negative
insulin aspart — AUC(GIR,0-t) (euglycemic clamp; Japanese type 1 diabetes patients; subcutaneous, 0.2 U/kg single, up to 12 h, least squares mean): 1100 mg/kg
QYFARMCSV — IFN-γ ELISpot response (CD8 T cell response; peptide, naive splenocytes as APCs, mouse; 2 µg/mL, 48 h): negative
calcium — desensitization time constant (ion current, two-electrode voltage clamp; Xenopus oocytes; 1.8 mM, 80 mV, added: niflumic acid present): 37.7 s and 7.16 s and 9.86 s and 21 s and 36 s
somatropin — height at end of therapy (Turner syndrome patients; s.c., 0.3 mg/kg/week, mean 22.2 months, mean): 1.35 m
cotadutide — metabolite level (metabolomics, item: hepatic lysine; ob/ob mice on AMLN diet, NASH model, liver; dose not given): 1.04 ± 0.03 scaled intensity
SGPLLAPLY — IFN-γ ELISpot response (CD8 T cell response; peptide, naive splenocytes as APCs, mouse; 2 µg/mL, 48 h): negative
insulin — newborn birth weight (women with gestational diabetes; dose not given): 3.07 ± 0.37 kg
insulin aspart — onset of action (euglycaemic glucose clamp; human, adults with type 1 diabetes, up to 35 years; subcutaneous, 0.2 U/kg): 26.3 min
liraglutide — food intake (Wistar rat, female, diet-induced obese; dose not given, 5 days baseline before treatment): 72.1 ± 5.2 kcal/day
KCNTATCATQRLANFLVHSSNNFGPILPPTNVGSNTY (Pramlintide; sequence looked up) — Aβ1-40 level (ELISA; peptide, Tg2576 mouse, brain extract; intraperitoneal, dose not given, 10 weeks daily): 905 ± 132 pg/10 µg protein
adenosylhomocysteinase — co-IP enrichment (co-immunoprecipitation; human RBC membrane; DSSO crosslinker, unit not given, added: Band 3 peptide 1-56 bait; reference: negative control): 45.4
MPLTLGTNV — IFN-γ ELISpot response (CD8 T cell response; peptide, naive splenocytes as APCs, mouse; 2 µg/mL, 48 h): negative
heparin sodium — time to maximum prothrombin time ratio (healthy Chinese adult volunteers, plasma; continuous intravenous infusion, 8 IU/kg/h, day 1 to 6 of 5-day infusion, median with range; reference: baseline): 1.99 h
thimet oligopeptidase — co-IP enrichment (co-immunoprecipitation; human plasma; unit not given, added: Band 3 peptide 1-56 bait; reference: negative control): 0
insulin glargine — ratio of GIRmax (euglycaemic clamp; type 1 diabetes patients; dose not given; reference: test over US reference insulin): 0.98
tripeptidyl peptidase 2 — co-IP enrichment (co-immunoprecipitation; human RBC cytosol; unit not given, added: Band 3 peptide 1-56 bait; reference: negative control): 0
maraviroc — serum level (ELISA, item: sRAGE; mouse, non-infected, serum; dose not given): 102 ± 2.21 ng/mL
Pam2CSK4 — Thioflavin S plaque level (APP/PS1 mouse, cortex; local injection, dose not given, unit not given; reference: injected over adjacent side): 0.753 and 0.883 and 1.04
human desmoplakin — co-IP enrichment (co-immunoprecipitation; human RBC membrane; no crosslinker, unit not given, added: Band 3 peptide 1-56 bait; reference: negative control): 0
YEQDPWGVKWWY — serum IL-6 (peptide, mouse, CP model, serum; 0.154 µmol/kg, 4 weeks): decreased
YFARMCSVM — IFN-γ ELISpot response (CD8 T cell response; peptide, naive splenocytes as APCs, mouse; 2 µg/mL, 48 h): negative
FKBP12 — co-IP enrichment (co-immunoprecipitation; human RBC cytosol; DSSO crosslinker, unit not given, added: Band 3 peptide 1-56 bait; reference: negative control): 0
CpG-ODN 1826 — LAG-3+ T cells (mouse B16-F10 tumour, tumour; dose not given, day 8): 23.7 ± 7.27%

For quick reference, copied from above:
LTPLVPEEL — IFN-γ ELISpot response (CD8 T cell response; peptide, naive splenocytes as APCs, mouse; 2 µg/mL, 48 h): negative
human HSC70 — co-IP enrichment (co-immunoprecipitation; human RBC cytosol; unit not given, added: Band 3 peptide 1-56 bait; reference: negative control): 0
insulin degludec — maximum glucose infusion rate (euglycaemic hyperinsulinaemic clamp; healthy Chinese male humans; subcutaneous, 0.4 IU/kg, 24 h, 3 FC level, single dose, reference formulation): 2.15 ± 1 mg/kg/min
PMESGICTIV — binding intensity (human SCRIB PDZ3-4 tandem (MBP fusion); automated holdup; peptide, purified PDZ protein; concentration not given, unit not given; reference: biotin control resin, higher = stronger binding): -0.0577
CCT4 — co-IP enrichment (co-immunoprecipitation; human RBC cytosol; unit not given, added: Band 3 peptide 1-56 bait; reference: negative control): 0
